Assay results of several laboratories.
Protocols differ between the studies behind these lines. Values joined by “and” are separate records of one study, mostly repeats; a detail may differ. Numbers after ± are the reported error.

| Compound | test | test system | setting | how to read | endpoint | result |
| --- | --- | --- | --- | --- | --- | --- |
| CCOC(=O)[C@H](CCc1ccccc1)N[C@@H](C)C(=O)N1CCC[C@H]1C(=O)O |  | renal hypertensive rat | sc osmotic minipump, 40 mg/kg/day | relative to: vehicle | left ventricular end-diastolic volume | increased |
| CN(CCOc1ccc(CC2SC(=O)NC2=O)cc1)c1ccccn1 (racemic) | indirect calorimetry | mice, diet-induced obese | dose not given, average over 72 h, end of treatment |  | VCO2 | 70 ± 6.83 mL/min/kg |
| Cc1cc(F)cc2c(CCC(=O)N[C@@H]3C(=O)NC[C@H]3O)c(-c3ccc(F)cc3)[nH]c12 |  | mice, APOL1 G2, single copy | oral, 30 mg/kg twice daily, day 12, dosing from day 6, with: IFNγ plasmid injection |  | UACR | 677 µg/mg |
| CN[C@@H]1COc2c(S(=O)(=O)NC(=O)Nc3c4c(cc5c3CCC5)CCC4)cnn2C1 | refers to: IL-1β | human participants, whole blood ex vivo | 1800 mg single dose, 1 h, with: LPS/ATP | relative to: baseline | inhibition | 99.9% |
| N#Cc1ccn2c(-c3ccncc3)c(-c3ccc(F)cc3)nc2c1 | kinase binding, competitor, MIB/MS competition, refers to: HRR25 | Candida albicans cell lysate | 10 µM | relative to: DMSO | log2 fold change | -2.1 |
| CCCN(O)N=Nc1ccc(S(=O)(=O)Nc2onc(C)c2C)cc1 | carrageenan-induced paw edema | Wistar rat | oral, 100 mg/kg, 0 h (baseline), with: carrageenan 1% subplantar | higher = more edema | paw edema volume | 3.22 ± 0.56 a.u. |
| OC(CCN1CCCCC1)(c1ccccc1)C1CC2C=CC1C2 (stereo not shown) | resting-state EEG | healthy elderly humans | oral, 2 mg, eyes closed, LS mean | relative to: baseline | change in EEG Beta1-power Pz-O2 | -12.7% |
| CCN(O)N=Nc1ccc(S(=O)(=O)Nc2onc(C)c2C)cc1 | carrageenan-induced paw edema | Wistar rat | oral, 100 mg/kg, 2 h after carrageenan, with: carrageenan 1% subplantar | higher = more edema | paw edema volume | 6.11 ± 0.84 a.u. |
| CCCCOc1nc(N)c2c(n1)N(Cc1cccc(CN3CCCC3)c1)CC(=O)N2 | flow cytometry | human, blood | dose not given, three dosing periods | relative to: baseline | immune cell activation markers | no effect |
| Cc1ccc(N(O)N=Nc2ccc(S(=O)(=O)Nc3onc(C)c3C)cc2)cc1 | carrageenan-induced paw edema | Wistar rat | oral, 100 mg/kg, 2 h after carrageenan, with: carrageenan 1% subplantar | higher = more edema | paw edema volume | 5.32 ± 0.38 a.u. |
| CC(C)[C@H](C(=O)Nc1ccc(C(=O)NO)cc1)c1ccccc1 | volumetric MRI | human, right internal auditory canal | dose not given, 224 days |  | tumour volume | 20.2 cm³ |
| CSCCNc1nc(SCCC(F)(F)F)nc2c1ncn2[C@@H]1O[C@H](COP(=O)(O)OP(=O)(O)C(Cl)(Cl)P(=O)(O)O)[C@@H](O)[C@H]1O | light transmittance aggregometry | human patients, platelet-rich plasma | dose not given, 30 min, with: ADP 20 µM | relative to: patients | patients with IPA above 80% | 5% |
| C[C@H](Oc1ccc(Br)cc1-c1ccon1)C(=O)O | first response latency | human, tibialis anterior muscle | 100 mg, 15 Hz, single ascending dose |  | difference from placebo | -0.335% |
| Cc1nn(-c2nc3c(F)cc(F)cc3s2)c(O)c1C(c1ccc(C(F)(F)F)cc1)c1c(C)nn(-c2nc3c(F)cc(F)cc3s2)c1O |  | mouse, cerulein-induced acute pancreatitis, serum | 25 mg/kg |  | amylase activity | 98.1 mOD/min and 80.7 mOD/min and 140 mOD/min and 94.2 mOD/min and 91.3 mOD/min |
| CC1(C)CCC(CN2CCN(c3ccc(C(=O)NS(=O)(=O)c4ccc(NCC5CCOCC5)c([N+](=O)[O-])c4)c(Oc4cnc5[nH]ccc5c4)c3)CC2)=C(c2ccc(Cl)cc2)C1 | cell killing | canine lymph node CD3+ T cells, dog 39 | 24 h |  | EC50 | 48 nM |
| CC(C)(C)c1sc2ncnc(Oc3c(F)cccc3OC(F)(F)F)c2c1-c1ccc(Cl)cc1 | heat hyperalgesia | humanized MrgprX1 mice, CCI | oral, dose not given |  | time to maximum effect | 2 h |
| Cc1n[nH]c2ccc(-c3cc(OC[C@@H](N)Cc4ccccc4)cnc3-c3ccoc3)cc12 | kinase binding, competitor, MIB/MS competition, refers to: HSL1 | Candida albicans cell lysate | 100 nM | relative to: DMSO | log2 fold change | 0.351 |
| CO[C@H]1CC[C@H](N2C(=O)CNc3ncc(-c4ccc(C(C)(C)O)nc4)nc32)CC1 | flow cytometry | stimulated T cells, human, blood | 45 mg single dose, 1.5 h, mean | relative to: baseline | p4EBP1 change from baseline | -49.8% |
| N=C(N)NCCC[C@H](NC(=O)[C@H](CCCNC(=N)N)NC(=O)[C@H](CCCCN)NC(=O)[C@H](CCC(N)=O)NC(=O)[C@H](CCCCN)NC(=O)[C@H](Cc1ccc(O)cc1)NC(=O)[C@@H](N)CCCCN)C(=O)N[C@@H](CO)C(=O)N[C@@H](Cc1ccc(O)cc1)C(=O)N[C@@H](CCCCN)C(=O)O |  | dentin hypersensitivity patients | 5 µg/tooth single, day 22, unit not given | relative to: baseline | median tactile threshold change | -1 |

| Compound | test | test system | setting | how to read | endpoint | result |
| --- | --- | --- | --- | --- | --- | --- |
| COc1nc(NCc2cn(-c3ccc(C(=O)Nc4ccccc4)cc3)nn2)nc(OC)n1 | cell viability, MTT | normal colonocytes, rat | 72 h |  | IC50 | 158 ± 3.22 nM |
| CCN(O)N=Nc1ccc(S(=O)(=O)Nc2nccs2)cc1 | carrageenan-induced paw edema | Wistar rat | oral, 100 mg/kg, 4 h after carrageenan, with: carrageenan 1% subplantar | higher = more edema | paw edema volume | 4.61 ± 1.43 a.u. |
| COc1ccc(C2=N[C@@H](c3ccc(Cl)cc3)[C@@H](c3ccc(Cl)cc3)N2C(=O)N2CCNC(=O)C2)c(OC(C)C)c1 | histology | Dmd C3333Y mice, gastrocnemius | dose not given |  | centrally nucleated fibres | 85% and 79% and 90% and 87% and 92% |
| NC/C(=C\F)COc1cccc(Cn2c(=S)[nH]c(=O)c3[nH]cnc32)c1 |  | mouse, carrageenan air pouch, air pouch exudate | 10 mg/kg, 12 h |  | total white blood cell count | 1.8e+07 and 4.2e+07 and 1.9e+07 and 1e+07 and 4.4e+07 and 4.8e+07 and 2.8e+07 and 6e+07 |
| c1ccc(-c2n[nH]cc2-c2ccnc3ccccc23)nc1 | kinase binding, competitor, MIB/MS competition, refers to: HRR25 | Candida albicans cell lysate | 10 µM | relative to: DMSO | log2 fold change | -1.17 |
| Cc1ccc(NC(=O)c2ccc(CN3CCN(C)CC3)cc2)cc1Nc1nccc(-c2cncc(-c3oncc3C)c2)n1 |  | mice, α-synuclein PFF-injected, brain | dose not given, therapeutic setting |  | dopaminergic neurons preserved | ≥ 85% |
| CCCCCCCCCCCCCCCC(=O)NCCOC(=O)C[C@@H](CN)CC(C)C | mechanical withdrawal threshold | mouse carrageenan inflammatory pain | oral, dose not given |  | time to peak efficacy | 180 min |
| CN[C@@H]1C[C@H]2O[C@@](C)([C@@H]1OC)n1c3ccccc3c3c4c(c5c6ccccc6n2c5c31)C(=O)NC4 |  | 5TGM1, mouse |  |  | apoptosis-inducing concentration | > 1 µM |
| Cc1ccc(N(O)N=Nc2ccc(S(=O)(=O)Nc3cc(C)on3)cc2)cc1 | carrageenan-induced paw edema | Wistar rat | oral, 100 mg/kg, 1 h after carrageenan, with: carrageenan 1% subplantar | higher = more edema | paw edema volume | 6.01 ± 1.24 a.u. |
| CC(C)C[C@H](NC(=O)[C@@H](Cc1c[nH]c2ccccc12)NC(=O)[C@H](Cc1ccc(O)cc1)NC(=O)[C@H](CO)NC(=O)[C@H](Cc1c[nH]c2ccccc12)NC(=O)[C@H](Cc1c[nH]cn1)NC(=O)[C@@H]1CCC(=O)N1)C(=O)N[C@@H](CCCNC(=N)N)C(=O)N1CCC[C@H]1C(=O)NCC(N)=O | Tanner staging | Chinese overall, central precocious puberty | intramuscular, 22.5 mg day 1, month 6, month 12 | relative to: baseline | stable pubic hair stage | 86.4% |
| N#Cc1ccc2c(c1)[C@H]1CCCN(C(=O)c3ccc4[nH]cnc4c3)[C@H]1C2 |  | human, plasma | 10 mg, day 15, 360 h | relative to: placebo and baseline | change in fasting glucose | 4.9% |
| CCCN(O)N=Nc1ccc(S(=O)(=O)Nc2cc(C)on2)cc1 | carrageenan-induced paw edema | Wistar rat | oral, 100 mg/kg, 3 h after carrageenan, with: carrageenan 1% subplantar | higher = more edema | paw edema volume | 4.23 ± 0.89 a.u. |
| CN(C)C(=O)Oc1cccc([N+](C)(C)C)c1 | neuromuscular block reversal | rat | dose not given, 15.5 (unit not given), with: cisatracurium | relative to: T1 twitch | train-of-four ratio | 97 |
| C[C@H]1C[C@H]2CSC(N)=N[C@@]2(c2nc(NC(=O)c3ccc(OC(F)F)cn3)cs2)CO1 | refers to: total Aβ | healthy adults, plasma | 40 mg single dose, 4 h post-dose | relative to: placebo | percent change from baseline | -36.8% |
| CC(C)NCC(O)c1ccc(O)c(O)c1 (stereo not shown) |  | ventricular cardiomyocytes, C57BL/6 mouse | dose not given, 0.128 s |  | sarcomere length | 1.66 µm |
| Nc1nc2cc(-c3ccc4ncc(C(=O)N5CCOCC5)n4c3)ccc2o1 | RECIST v1.1 | advanced solid tumour patients | dose not given, 27 of 61 evaluable | relative to: patients | stable disease | 44% |
| COc1c(C)cnc(Cn2cc(C#CCCOP(=O)(O)O)c3c(Cl)nc(N)nc32)c1C | refers to: HER-2 extracellular domain | human patients, serum | 12 mg/m^2, 1 of 4 patients |  | serum HER-2 ECD decrease | < 20 % below baseline |
| C[C@@H](NC(=O)N1C(=O)[C@H](Cc2ccnc(N)c2)[C@H]1C(=O)O)C1CCCCC1 |  | human | iv infusion, 1.5 mg/kg/h, 24 h, unit not given | relative to: baseline | PT Emax | 1.06 |

Excerpt of the above:
| Compound | test | test system | setting | how to read | endpoint | result |
| --- | --- | --- | --- | --- | --- | --- |
| COc1nc(NCc2cn(-c3ccc(C(=O)Nc4ccccc4)cc3)nn2)nc(OC)n1 | cell viability, MTT | normal colonocytes, rat | 72 h |  | IC50 | 158 ± 3.22 nM |
| CCN(O)N=Nc1ccc(S(=O)(=O)Nc2nccs2)cc1 | carrageenan-induced paw edema | Wistar rat | oral, 100 mg/kg, 4 h after carrageenan, with: carrageenan 1% subplantar | higher = more edema | paw edema volume | 4.61 ± 1.43 a.u. |
| COc1ccc(C2=N[C@@H](c3ccc(Cl)cc3)[C@@H](c3ccc(Cl)cc3)N2C(=O)N2CCNC(=O)C2)c(OC(C)C)c1 | histology | Dmd C3333Y mice, gastrocnemius | dose not given |  | centrally nucleated fibres | 85% and 79% and 90% and 87% and 92% |
